Assay results from different studies.
Every numbered part comes from another study and shows a few of its results, in no order. Substitutions count along the parent as printed.

Series 1 — method: DHFR PCA, deep sequencing; medium: yeast; together with: (+)-ABA 200 µM; reference: wild-type fitted maximum; direction: higher = stronger binding; endpoint: relative binding score
Target: ABI1, truncated, D143A, DHFR fusion (Arabidopsis thaliana)
Notes: methotrexate growth selection, single substitutions
Parent: PYL1, truncated, DHFR fusion (Arabidopsis thaliana); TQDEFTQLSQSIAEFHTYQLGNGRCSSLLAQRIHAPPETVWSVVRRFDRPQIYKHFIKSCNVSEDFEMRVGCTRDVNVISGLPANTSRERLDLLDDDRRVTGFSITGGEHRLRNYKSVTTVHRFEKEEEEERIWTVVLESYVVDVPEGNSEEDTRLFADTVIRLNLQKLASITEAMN; partner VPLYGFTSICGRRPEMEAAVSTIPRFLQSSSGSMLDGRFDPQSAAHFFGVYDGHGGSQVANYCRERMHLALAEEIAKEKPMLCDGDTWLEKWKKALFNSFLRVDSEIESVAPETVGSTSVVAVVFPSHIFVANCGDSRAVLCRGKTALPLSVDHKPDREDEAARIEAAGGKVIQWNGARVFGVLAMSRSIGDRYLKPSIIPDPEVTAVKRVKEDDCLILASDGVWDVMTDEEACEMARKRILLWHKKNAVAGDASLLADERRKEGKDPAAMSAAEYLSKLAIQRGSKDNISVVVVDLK
H34G: 95.5%
F56T: 29.5%
V44H: -40.2%
E109T: 106%
L29N: 95.9%
P36H: 98.5%
S117L: 2.77%
V161D: -3.07%
K58C: 88.3%
V43M: 93.6%
T17H: 94.9%
A35H: 0.57%
D153H: 77%

Series 2 — method: RNA Bind-n-Seq; molecule type: RNA; medium: in vitro; concentration: 365 nM; reference: no-protein control; direction: higher = stronger binding; endpoint: RBNS enrichment (R)
Target: RNA binding protein fox-1 homolog 2, RRM domain, GST-SBP tag (RBFOX2, Homo sapiens, UniProt O43251-10, residues 100-194)
Notes: natural RNA segment, single round, ends assumed
All sequences stand within: GGGAGUUCUACAGUCCGACGAUC … UGGAAUUCUCGGGUGCCAA
Residues (chain): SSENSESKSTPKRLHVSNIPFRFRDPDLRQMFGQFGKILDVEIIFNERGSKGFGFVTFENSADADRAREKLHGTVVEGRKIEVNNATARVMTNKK
CAGGCUCUUCAAGAAUACAAUAAUUAAGAAAAGGAGCCUCCUGAGAAGGCGUUGAGUAGACAGACUGUUGAGAGGCCACAGAGUGCACUUGGAAAAACUCAUUUCUGUGC: 0.321
AAGGAAUUUCCAAAGGAUAAUAUUUUUCUAAUAAAUGCGGCUGCAACCUCCUGUGCAUUUAAUUAAAUAGGCCAAAUUUUUGCUGCUUAGGUCAUCUCAAGGCUGAUACU: 1.71
UUCCUGAGGGGCCUCAGGGCAUUGGAGGGGGCCGACACCCCUCCACUAAAGAUUGAGUGAGGUCUCCCUGACUGAGGACUUCACCCCUUGAUUAAAGCAACUUGUGCUUC: 0.451
UGCCACUUGUAAAUGUUUUGCAGCCAGCACCUGAGGACUUCUUAUACAGUCAUAAAGCCACCUAGAGCGAUUUGUUGUUGAGCAACGCCGCCCCUUCCCUCCAGGAUCAG: 0.557
AAACUGUUAACCAUGUACAAUAUUGGAAAUAGGCUGAUUUUGAUGUAUUGCCUAUUCUUCAAGUACACAAAAACAUUUUGGAGGCCUCAAUUAUGAGUGGCAGAGCUUUC: 0.291
AUUGUUGUACAGGAUCUUCAGUUAUUCGAGGGGAAUGAGGCAGGUCAAGCCGAUGCUAGCCACUAGUUUGAUUUUUUUUCUGUUUUAUAGUUUGCGCUGCAUGGUACUUG: 1.84
GAUGUAUAAAGCAACAUGAAACAUUAGCCCUCCUUUUAUUUUAAAGACUAAUGUUAAUUGUUCUUAAAACUGGAUUUUUUUUCCUUAAAGCAAUUUUUUUCUUUUCGAUU: 0.875
ACCCUAAUCUUCGCAGCCGCUUGGCCCUGAGAGAUGAUGCCCUGUACAGGAGAUCCCUUCUCACCCUCCAGCUCUGCAAACCGUGUCUCAUGUUUCACAGCGUUCCUGUU: 0.565

Series 3 — method: protein-binding microarray; molecule type: double-stranded DNA, one strand shown; medium: in vitro; concentration: 250 nM; notes: 60-bp whole probe; together with: salmon DNA 0.4 mg/ml; reference: random background probes; direction: higher = stronger binding; endpoint: log fluorescence; all sequences stand within: GCCTAGCAC … GTCTTGATTCGCTTGACGCTGCTG
Target: Interferon regulatory factor 7, full length, phosphomimetic (IRF7, Homo sapiens, UniProt Q92985, residues 1-503, S101K/S471D/S472D/S475D/S476D/S477D/S483D/S484D/S487D)
Residues (chain): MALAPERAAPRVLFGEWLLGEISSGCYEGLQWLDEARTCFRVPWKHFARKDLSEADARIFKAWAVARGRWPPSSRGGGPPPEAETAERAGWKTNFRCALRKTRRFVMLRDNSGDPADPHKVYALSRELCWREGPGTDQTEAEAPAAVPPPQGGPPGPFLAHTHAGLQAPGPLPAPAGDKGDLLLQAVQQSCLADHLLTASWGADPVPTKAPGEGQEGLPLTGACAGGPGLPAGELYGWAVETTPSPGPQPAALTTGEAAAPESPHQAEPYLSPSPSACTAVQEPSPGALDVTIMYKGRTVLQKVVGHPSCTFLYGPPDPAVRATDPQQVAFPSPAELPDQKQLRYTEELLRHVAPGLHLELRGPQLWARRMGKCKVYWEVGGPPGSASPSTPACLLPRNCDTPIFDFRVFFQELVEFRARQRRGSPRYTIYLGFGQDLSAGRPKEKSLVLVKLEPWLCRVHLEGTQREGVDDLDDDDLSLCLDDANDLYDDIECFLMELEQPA
GACGACTTCGGGACTGGAGACGTGCTA: -0.717 z-score
AGGAATTTCCCACTTTCACTGTGCTAG: 2.61 z-score
TCACATCTCCAAAGTCAGACTGTGCTA: 0.509 z-score
GACGGTCTCCGTCTCGGGACGTGCTAG: -0.272 z-score
TTAGAGTTCGGGTTTCGATTAGTGCTA: 7.04 z-score
AACGATTCCAGTTTCGAGACGTGCTAG: 5.17 z-score
TTAGGTCTCGGTCTCGGTTCGTGCTAG: 4.44 z-score
GAGGGTATCGGGTATCGGGACGTGCTA: 0.0626 z-score
TCATTTATCAAATGTGGGACTGTGCTA: 1.28 z-score
GACGAACTGAGCATCGAGACGTGCTAG: -0.434 z-score
TTAGGACTGGGTCTTGGTTAGTGCTAG: -0.32 z-score
TCACCTCTTTCACTGGTACTGTGCTAG: 0.821 z-score
TTAGTTTTCGGGTATCGATTAGTGCTA: 3.73 z-score
TTTGTAATCGAAATCTTCATGTGCTAG: 0.294 z-score
TCAGTTTCCTTCCTCTTACTGTGCTAG: 3.53 z-score
GATTTTTTTCATATATATATGTGCTAG: 1.05 z-score
TTAGATATCCGACTGGATTAGTGCTAG: -0.348 z-score
GACGATATTGGGTATCGAGACGTGCTA: 0.0152 z-score

Series 4 — target: CCNB3, cyclin fold, Cln2 fusion (human); method: yeast growth competition, sequencing; medium: yeast; notes: weak parent motif; reference: not given; direction: higher = stronger binding; endpoint: normalised enrichment score
Parent: RBL1 docking peptide (human); GSAKRRLFGEDPP; partner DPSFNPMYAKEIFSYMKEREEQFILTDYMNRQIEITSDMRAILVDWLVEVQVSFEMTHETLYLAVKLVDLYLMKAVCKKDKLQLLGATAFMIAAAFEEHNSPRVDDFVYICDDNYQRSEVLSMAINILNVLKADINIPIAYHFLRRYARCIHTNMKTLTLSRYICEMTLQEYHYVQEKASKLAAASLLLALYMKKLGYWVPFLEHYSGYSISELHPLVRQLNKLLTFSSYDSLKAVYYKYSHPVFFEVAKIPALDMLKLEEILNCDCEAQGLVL
GSAKRRLFGEAPP [D11A]: 0.616
GSAKRRLFGEFPP [D11F]: 0.28
GSAKRRYFGEDPP [L7Y]: 0.112
GSAKRRLFGNDPP [E10N]: 0.595
GRAKRRLFGEDPP [S2R]: 0.514
GSAKRRLFGADPP [E10A]: 0.43
GSAKRRLFHEDPP [G9H]: 0.933
GSAKRRLFGPDPP [E10P]: 0.704
GSAKRRLHGEDPP [F8H]: -0.0292
RSAKRRLFGEDPP [G1R]: 1.29
QSAKRRLFGEDPP [G1Q]: 0.565
GSAKRRLFGTDPP [E10T]: 0.431
GIAKRRLFGEDPP [S2I]: 0.544
GSMKRRLFGEDPP [A3M]: 0.053
VSAKRRLFGEDPP [G1V]: 1.29
GSAKRRLFGEWPP [D11W]: 0.401
GSAFRRLFGEDPP [K4F]: 0.459

Series 5 — method: aptamer microarray, sandwich; molecule type: DNA with 2'F-ANA; medium: in vitro; concentration: 200 nM; together with: Cy3 exosite-II aptamer, 400 nM; direction: higher = stronger binding; endpoint: mean fluorescence intensity; strand: GGTTGGTGTGGTTGG
Target: Prothrombin, mature alpha-thrombin (F2, Homo sapiens, UniProt P00734)
Notes: whole 15-mer aptamer, many near background
2'F-ANA at 1 2 3 4 7 10 12 13 14: 49.2 a.u.
2'F-ANA at 2 3 4 6 8 10 12 14: 161 a.u.
2'F-ANA at 1 2 3 4 5 6 9 10 14 15: 57.8 a.u.
2'F-ANA at 1 3 5 6 9 10 11 13 15: 47 a.u.
2'F-ANA at 4 5 8 9 10 11 12 15: 47 a.u.
2'F-ANA at 1 2 3 10 11 12: 88.3 a.u.
2'F-ANA at 1 4 8 10 12 13 14 15: 51.8 a.u.
2'F-ANA at 2 3 6 7 8 9 10 12 13 14 15: 255 a.u.
2'F-ANA at 1 2 3 6 7 8 11 12 14: 85.4 a.u.
2'F-ANA at 1 3 9 13 14 15: 78.5 a.u.
2'F-ANA at 2 5 7 8 11 12 13 14 15: 53.2 a.u.
2'F-ANA at 1 2 4 5 6 11 12 13 14 15: 49.3 a.u.
2'F-ANA at 2 3 6 10 13 14 15: 261 a.u.

Repeated from above (series 1):
S117L: 2.77%
A35H: 0.57%
V43M: 93.6%
E109T: 106%
T17H: 94.9%
P36H: 98.5%
V44H: -40.2%
L29N: 95.9%
K58C: 88.3%
F56T: 29.5%
V161D: -3.07%
